Values quoted from earlier work as cited in several papers.
Compare with care: the assays were run in different laboratories. Numbers after ± are the reported error.
ADRA2C: Alpha-2C adrenergic receptor (ADRA2C, Homo sapiens, UniProt P18825)
UniProt P18825, sequence (whole entry, looked up): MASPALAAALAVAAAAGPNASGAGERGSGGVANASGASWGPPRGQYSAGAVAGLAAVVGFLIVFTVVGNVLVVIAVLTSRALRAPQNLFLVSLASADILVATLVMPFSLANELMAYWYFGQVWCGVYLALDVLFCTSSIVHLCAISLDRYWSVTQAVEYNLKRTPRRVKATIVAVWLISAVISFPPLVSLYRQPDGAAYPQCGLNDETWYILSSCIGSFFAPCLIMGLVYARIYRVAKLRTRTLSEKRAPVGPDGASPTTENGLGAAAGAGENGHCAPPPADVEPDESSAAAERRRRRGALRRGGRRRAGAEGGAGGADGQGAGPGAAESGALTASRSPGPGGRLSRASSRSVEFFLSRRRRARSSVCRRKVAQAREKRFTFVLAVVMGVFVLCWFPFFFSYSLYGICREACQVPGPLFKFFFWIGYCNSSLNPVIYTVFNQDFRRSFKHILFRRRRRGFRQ
DRD2: D(2) dopamine receptor (DRD2, Homo sapiens, UniProt P14416)
UniProt P14416, sequence (whole entry, looked up): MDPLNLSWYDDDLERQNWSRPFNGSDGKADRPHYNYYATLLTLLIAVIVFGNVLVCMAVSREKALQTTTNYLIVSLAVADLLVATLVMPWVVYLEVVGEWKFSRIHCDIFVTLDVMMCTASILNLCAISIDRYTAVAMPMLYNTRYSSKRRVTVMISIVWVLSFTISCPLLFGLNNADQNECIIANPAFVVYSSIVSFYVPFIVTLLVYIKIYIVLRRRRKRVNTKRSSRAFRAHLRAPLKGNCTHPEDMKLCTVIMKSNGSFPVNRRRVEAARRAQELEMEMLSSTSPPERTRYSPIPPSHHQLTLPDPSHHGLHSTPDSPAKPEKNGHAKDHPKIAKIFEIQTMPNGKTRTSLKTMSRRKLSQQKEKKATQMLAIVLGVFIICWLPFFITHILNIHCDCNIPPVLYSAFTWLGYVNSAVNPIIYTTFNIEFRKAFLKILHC
UniProt P09874, sequence (whole entry, looked up): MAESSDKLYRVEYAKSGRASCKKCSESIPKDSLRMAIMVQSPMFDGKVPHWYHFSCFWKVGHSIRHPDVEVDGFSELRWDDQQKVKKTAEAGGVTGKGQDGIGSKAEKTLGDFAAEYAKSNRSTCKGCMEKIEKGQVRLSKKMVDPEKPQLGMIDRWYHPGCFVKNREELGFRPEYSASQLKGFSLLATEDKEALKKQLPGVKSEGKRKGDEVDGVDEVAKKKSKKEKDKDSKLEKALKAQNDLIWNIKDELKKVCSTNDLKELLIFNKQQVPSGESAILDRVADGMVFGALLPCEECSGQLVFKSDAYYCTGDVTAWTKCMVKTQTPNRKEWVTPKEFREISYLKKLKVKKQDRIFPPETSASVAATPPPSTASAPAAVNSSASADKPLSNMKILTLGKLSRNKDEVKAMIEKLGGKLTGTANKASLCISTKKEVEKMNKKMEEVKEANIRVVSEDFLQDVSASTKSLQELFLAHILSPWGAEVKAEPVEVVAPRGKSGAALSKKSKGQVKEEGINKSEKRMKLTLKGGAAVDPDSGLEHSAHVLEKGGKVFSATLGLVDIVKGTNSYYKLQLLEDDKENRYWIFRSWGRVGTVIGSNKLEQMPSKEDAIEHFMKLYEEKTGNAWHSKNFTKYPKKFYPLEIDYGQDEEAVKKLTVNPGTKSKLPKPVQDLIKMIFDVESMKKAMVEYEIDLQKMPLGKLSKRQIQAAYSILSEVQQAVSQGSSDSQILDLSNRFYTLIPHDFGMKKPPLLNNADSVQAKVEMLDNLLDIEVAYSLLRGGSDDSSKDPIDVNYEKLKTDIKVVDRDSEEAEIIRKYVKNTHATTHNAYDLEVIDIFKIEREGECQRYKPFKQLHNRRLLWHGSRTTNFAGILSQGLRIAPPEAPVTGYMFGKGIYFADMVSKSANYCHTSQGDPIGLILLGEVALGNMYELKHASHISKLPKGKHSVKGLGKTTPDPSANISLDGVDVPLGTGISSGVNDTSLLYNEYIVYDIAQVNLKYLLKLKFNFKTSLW
UniProt Q9NY57, sequence (whole entry, looked up): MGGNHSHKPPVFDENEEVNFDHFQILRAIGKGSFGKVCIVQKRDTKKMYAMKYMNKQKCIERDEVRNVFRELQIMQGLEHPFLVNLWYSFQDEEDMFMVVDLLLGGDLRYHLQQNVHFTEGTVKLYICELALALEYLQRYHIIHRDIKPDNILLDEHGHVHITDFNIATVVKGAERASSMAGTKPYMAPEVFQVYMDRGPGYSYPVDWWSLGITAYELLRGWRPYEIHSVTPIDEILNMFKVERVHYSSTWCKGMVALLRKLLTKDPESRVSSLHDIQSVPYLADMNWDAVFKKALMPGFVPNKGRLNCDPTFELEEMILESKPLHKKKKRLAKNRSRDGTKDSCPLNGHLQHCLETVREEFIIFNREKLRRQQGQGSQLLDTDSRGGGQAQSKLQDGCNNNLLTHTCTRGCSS
UniProt P35968, sequence (whole entry, looked up): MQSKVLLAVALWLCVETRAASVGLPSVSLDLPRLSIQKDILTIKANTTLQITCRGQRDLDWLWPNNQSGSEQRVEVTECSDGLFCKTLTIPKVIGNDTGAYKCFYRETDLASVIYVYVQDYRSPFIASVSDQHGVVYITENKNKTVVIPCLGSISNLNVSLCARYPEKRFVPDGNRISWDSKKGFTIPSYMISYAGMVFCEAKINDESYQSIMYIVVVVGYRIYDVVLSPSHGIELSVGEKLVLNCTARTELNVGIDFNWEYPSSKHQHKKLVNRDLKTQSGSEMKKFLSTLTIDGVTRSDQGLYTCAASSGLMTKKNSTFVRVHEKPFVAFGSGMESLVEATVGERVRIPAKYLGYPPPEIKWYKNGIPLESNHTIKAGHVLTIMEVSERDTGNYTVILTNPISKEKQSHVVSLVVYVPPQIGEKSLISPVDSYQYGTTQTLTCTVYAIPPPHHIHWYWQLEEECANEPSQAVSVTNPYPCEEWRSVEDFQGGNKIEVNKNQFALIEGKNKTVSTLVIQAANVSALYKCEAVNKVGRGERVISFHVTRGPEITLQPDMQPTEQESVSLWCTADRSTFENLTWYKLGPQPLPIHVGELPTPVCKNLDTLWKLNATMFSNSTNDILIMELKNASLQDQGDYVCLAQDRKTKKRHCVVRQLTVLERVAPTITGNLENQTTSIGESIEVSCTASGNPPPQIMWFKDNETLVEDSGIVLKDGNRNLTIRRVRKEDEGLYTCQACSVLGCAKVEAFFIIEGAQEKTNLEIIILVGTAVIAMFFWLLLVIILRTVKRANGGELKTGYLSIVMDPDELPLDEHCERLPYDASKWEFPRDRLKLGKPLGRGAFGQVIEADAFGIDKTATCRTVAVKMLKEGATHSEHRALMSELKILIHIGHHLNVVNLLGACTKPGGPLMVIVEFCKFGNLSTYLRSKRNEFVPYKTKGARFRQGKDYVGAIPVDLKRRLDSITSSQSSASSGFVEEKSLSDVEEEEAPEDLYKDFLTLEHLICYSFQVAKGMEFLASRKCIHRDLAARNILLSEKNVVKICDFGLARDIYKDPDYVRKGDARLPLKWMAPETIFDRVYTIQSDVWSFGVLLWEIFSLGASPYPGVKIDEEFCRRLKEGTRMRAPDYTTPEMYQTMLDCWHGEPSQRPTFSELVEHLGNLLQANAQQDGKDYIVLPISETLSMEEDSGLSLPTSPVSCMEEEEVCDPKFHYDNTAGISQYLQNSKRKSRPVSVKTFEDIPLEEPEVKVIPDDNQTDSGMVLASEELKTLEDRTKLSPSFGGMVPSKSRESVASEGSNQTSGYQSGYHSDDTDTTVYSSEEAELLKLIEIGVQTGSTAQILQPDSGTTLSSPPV

SMILES = Cc1ccc(CSc2ncnc3c2ccn3[C@@H]2O[C@H](CO)[C@@H](O)[C@H]2O)cc1; tested on = adenosine kinase (Toxoplasma gondii); test = binding; quantity = Ki; value = 19 ± 3.9 µM
SMILES = CNC(=O)[C@@]12C[C@@H]1[C@@H](n1cnc3c(NCc4cccc(Cl)c4)nc(C#Cc4ccc(F)c(F)c4)nc31)[C@H](O)[C@@H]2O; tested on = ADRA2C; test = radioligand binding (PDSP); quantity = Ki; value = 1 to 10 µM
SMILES = Cc1occc1C(=O)Nc1ccc(C(=O)N2CCC(F)(F)/C(=C\C(=O)N3CCC(N4CCCCC4)CC3)c3ccccc32)cc1; tested on = vasopressin V1a receptor; test = antagonist; quantity = Ki; value = 0.00018 µM
SMILES = O=c1oc2c(cc1O)oc(=O)c1cc(O)c(O)c(O)c12; tested on = L-lactate dehydrogenase A chain (LDHA, Homo sapiens, UniProt P00338); test = enzyme activity, inhibitor; setting = added: pyruvate competition; quantity = Ki; value = 5.46 µM
SMILES = O=c1[nH]c(=O)n([C@@H]2O[C@H](CO)[C@@H](O)[C@H]2O)cc1Br; tested on = cytidine deaminase (human); test = competitive inhibitor; setting = concentration not given; quantity = Ki; value = 380 µM
SMILES = Cc1[nH]cc(Br)c(=O)c1-c1ccc(Oc2ccccc2)cc1; tested on = Plasmodium falciparum; test = whole cell extended time; system = 3D7; setting = 72 h; quantity = IC50; value = 0.68 µM
SMILES = OC[C@H]1O[C@@H](n2ccc3c(O)ncnc32)[C@H](O)[C@@H]1O; tested on = adenosine kinase (Toxoplasma gondii); test = binding; quantity = Ki; value = 130 ± 24 µM
SMILES = CC1(C)S[C@@H]2[C@H](NC(=O)[C@H](N)c3ccccc3)C(=O)N2[C@H]1C(=O)O; tested on = Klebsiella pneumoniae; system = clinical isolate RKI-No_80/15; quantity = MIC; value = > 16 µg/mL
SMILES = O=C(O)/C(=C/c1c(C(=O)O)[nH]c2cc(Cl)cc(Cl)c12)c1ccccc1; tested on = Glutamate receptor ionotropic, NMDA 1 (Grin1, Rattus norvegicus, UniProt P35439); test = binding; quantity = Ki; value = 0.021 µM
SMILES = CCCN(CCC1(O)CC(NC(=O)c2ccc3ccccc3c2)C1)C1CC1c1ccc(Cl)cc1 (stereo not shown); tested on = DRD2; test = binding; quantity = Ki; value = 0.623 µM
SMILES = Nc1cc(C(F)(F)F)c(-c2nc(N3CCOCC3)nc(N3CCOCC3)n2)cn1; tested on = Serine/threonine-protein kinase 32B (STK32B, Homo sapiens, UniProt Q9NY57); test = enzyme activity; setting = 10 µM; scale = baseline: untreated; quantity = remaining activity; value = 76%
SMILES = CCc1cccc(N2CCN(C[C@H](O)CCNC(=O)c3cc4ccccc4[nH]3)CC2)c1Cl; tested on = DRD2; test = binding; quantity = Ki; value = 0.0758 µM
SMILES = CNc1ccc(/C=C/c2ccc(OCCOCCOCCF)cc2)cc1; tested on = amyloid plaques; test = binding; quantity = Ki; value = 0.0067 µM
SMILES = C[C@H]1COCCN1c1nc(-c2cnc(N)cc2C(F)F)nc(N2CCOCC2)n1; tested on = BT-549; quantity = GI50; value = 0.329 µM
SMILES = O=c1ccn([C@H]2C[C@H](O)[C@@H](CO)O2)c(=O)[nH]1; tested on = cytidine deaminase (human); test = competitive inhibitor; setting = concentration not given; quantity = Ki; value = 440 µM
SMILES = O=[N+]([O-])C1=Cc2cc(I)ccc2OC1C(F)(F)F (stereo not shown); tested on = ADRA2C; quantity = Ki; value = 2.6 µM
SMILES = CNC(C)C1CCC(N)C(OC2C(N)CC(N)C(OC3OCC(C)(O)C(NC)C3O)C2O)O1 (stereo not shown); tested on = Klebsiella pneumoniae; system = clinical isolate RKI-No_80/15; quantity = MIC; value = > 8 µg/mL
SMILES = CC1CN([C@H]2C[C@H](O)[C@@H](CO)O2)C(=O)NC1=O (stereo partly shown); tested on = cytidine deaminase (human); test = competitive inhibitor; setting = concentration not given; quantity = Ki; value = 280 µM
SMILES = Cc1cc(=O)c2cc(-c3ccc(OC(F)(F)F)cc3)ccc2[nH]1; tested on = Plasmodium falciparum; test = whole cell extended time; system = 3D7; setting = 72 h; quantity = IC50; value = 0.48 µM
SMILES = COc1cc(CNC(=O)CCCC/C=C/C(C)C)ccc1O; tested on = Carbonic anhydrase 2 (CA2, Homo sapiens, UniProt P00918); quantity = Ki; value = 0.208 µM
SMILES = CO[C@]1(C(=O)N[C@@H](C)c2ccc(-n3cc(F)cn3)nc2)CC[C@H](c2nc(C)cc(Nc3cc(C)[nH]n3)n2)CC1; tested on = Vascular endothelial growth factor receptor 2 (KDR, Homo sapiens, UniProt P35968); test = not stated; quantity = Ki; value = 0.016 µM
SMILES = O=C(O)C1=CCCN(CCON=C(c2ccccc2)c2ccccc2)C1; tested on = Sodium- and chloride-dependent GABA transporter 1 (Slc6a1, Rattus norvegicus, UniProt P23978); test = binding; setting = historical reference data; quantity = Ki; value = 0.2 µM
SMILES = Nc1ccn([C@@H]2O[C@H](COP(=O)(O)O)[C@@H](O)[C@H]2O)c(=O)n1; tested on = cytidine deaminase (human); test = competitive inhibitor; setting = concentration not given; quantity = Ki; value = 500 µM
SMILES = N=C(NOCC(O)CN1CCCCC1)c1cccnc1 (stereo not shown); tested on = Poly [ADP-ribose] polymerase 1 (PARP1, Homo sapiens, UniProt P09874); test = inhibitor; quantity = Ki; value = 57 µM
SMILES = CN[C@@H](C)C(=O)N[C@H]1CN(C(=O)CC(C)C)CC[C@H]2CC[C@@H](C(=O)NC(c3ccccc3)c3ccccc3)N2C1=O; tested on = XIAP; quantity = Ki; value = 0.0664 µM

For quick reference, copied from above:
SMILES = CC1(C)S[C@@H]2[C@H](NC(=O)[C@H](N)c3ccccc3)C(=O)N2[C@H]1C(=O)O; tested on = Klebsiella pneumoniae; system = clinical isolate RKI-No_80/15; quantity = MIC; value = > 16 µg/mL
